Measurements collected from several papers.
Each numbered part is a random draw from the data of one study; scales do not carry over between parts. Several values in a cell are separate wells, animals, samples, runs or records.
Chain of UniProt Q9H422 (whole entry, looked up): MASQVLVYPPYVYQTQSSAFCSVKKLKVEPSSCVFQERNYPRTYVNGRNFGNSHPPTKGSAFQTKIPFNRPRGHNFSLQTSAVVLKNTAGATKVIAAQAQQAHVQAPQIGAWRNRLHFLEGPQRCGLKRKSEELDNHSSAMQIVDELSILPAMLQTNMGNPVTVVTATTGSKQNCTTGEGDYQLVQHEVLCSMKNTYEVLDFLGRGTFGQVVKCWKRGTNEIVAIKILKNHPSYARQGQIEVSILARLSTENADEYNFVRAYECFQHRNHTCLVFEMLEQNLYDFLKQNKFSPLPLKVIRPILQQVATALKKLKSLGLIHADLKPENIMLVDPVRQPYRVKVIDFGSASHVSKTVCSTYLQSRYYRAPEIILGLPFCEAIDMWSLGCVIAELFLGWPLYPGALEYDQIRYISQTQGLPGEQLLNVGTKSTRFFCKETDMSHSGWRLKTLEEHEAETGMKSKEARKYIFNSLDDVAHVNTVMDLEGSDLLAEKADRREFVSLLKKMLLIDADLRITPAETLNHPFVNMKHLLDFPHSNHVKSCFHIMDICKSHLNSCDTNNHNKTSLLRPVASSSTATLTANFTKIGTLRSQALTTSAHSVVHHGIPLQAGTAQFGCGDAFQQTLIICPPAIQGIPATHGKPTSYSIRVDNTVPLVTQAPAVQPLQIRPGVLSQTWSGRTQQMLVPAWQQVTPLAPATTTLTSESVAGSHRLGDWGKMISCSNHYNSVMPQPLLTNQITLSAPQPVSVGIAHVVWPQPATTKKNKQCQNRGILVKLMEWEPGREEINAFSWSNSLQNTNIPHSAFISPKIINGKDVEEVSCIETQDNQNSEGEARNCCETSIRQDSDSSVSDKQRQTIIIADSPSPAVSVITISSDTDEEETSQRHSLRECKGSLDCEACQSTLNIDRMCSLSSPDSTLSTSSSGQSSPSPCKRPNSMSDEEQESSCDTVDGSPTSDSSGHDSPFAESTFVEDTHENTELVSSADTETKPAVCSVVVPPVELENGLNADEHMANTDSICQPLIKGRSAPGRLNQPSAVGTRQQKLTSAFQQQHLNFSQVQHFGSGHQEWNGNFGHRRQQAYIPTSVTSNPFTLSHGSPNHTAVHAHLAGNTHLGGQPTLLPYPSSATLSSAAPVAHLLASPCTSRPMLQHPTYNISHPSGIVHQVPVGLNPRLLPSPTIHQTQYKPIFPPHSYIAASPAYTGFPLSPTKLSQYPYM
Chain of UniProt O60331 (whole entry, looked up): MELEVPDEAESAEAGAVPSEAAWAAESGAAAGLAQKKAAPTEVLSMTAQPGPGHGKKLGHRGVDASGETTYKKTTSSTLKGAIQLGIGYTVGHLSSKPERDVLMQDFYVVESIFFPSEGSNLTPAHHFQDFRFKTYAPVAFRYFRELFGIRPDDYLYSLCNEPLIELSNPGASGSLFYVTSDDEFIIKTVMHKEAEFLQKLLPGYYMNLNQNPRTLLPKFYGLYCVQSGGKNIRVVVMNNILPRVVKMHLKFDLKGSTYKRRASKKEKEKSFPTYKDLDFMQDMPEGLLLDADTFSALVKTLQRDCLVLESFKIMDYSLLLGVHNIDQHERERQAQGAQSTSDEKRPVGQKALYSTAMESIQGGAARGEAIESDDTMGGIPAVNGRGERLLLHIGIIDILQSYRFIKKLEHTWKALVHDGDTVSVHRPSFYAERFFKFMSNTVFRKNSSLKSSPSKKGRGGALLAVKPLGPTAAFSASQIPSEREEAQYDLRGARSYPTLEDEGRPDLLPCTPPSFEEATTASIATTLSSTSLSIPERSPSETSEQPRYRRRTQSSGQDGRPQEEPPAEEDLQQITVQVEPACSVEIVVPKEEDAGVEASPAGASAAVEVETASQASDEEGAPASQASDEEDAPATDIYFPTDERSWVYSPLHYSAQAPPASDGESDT
Chain of UniProt P20794 (whole entry, looked up): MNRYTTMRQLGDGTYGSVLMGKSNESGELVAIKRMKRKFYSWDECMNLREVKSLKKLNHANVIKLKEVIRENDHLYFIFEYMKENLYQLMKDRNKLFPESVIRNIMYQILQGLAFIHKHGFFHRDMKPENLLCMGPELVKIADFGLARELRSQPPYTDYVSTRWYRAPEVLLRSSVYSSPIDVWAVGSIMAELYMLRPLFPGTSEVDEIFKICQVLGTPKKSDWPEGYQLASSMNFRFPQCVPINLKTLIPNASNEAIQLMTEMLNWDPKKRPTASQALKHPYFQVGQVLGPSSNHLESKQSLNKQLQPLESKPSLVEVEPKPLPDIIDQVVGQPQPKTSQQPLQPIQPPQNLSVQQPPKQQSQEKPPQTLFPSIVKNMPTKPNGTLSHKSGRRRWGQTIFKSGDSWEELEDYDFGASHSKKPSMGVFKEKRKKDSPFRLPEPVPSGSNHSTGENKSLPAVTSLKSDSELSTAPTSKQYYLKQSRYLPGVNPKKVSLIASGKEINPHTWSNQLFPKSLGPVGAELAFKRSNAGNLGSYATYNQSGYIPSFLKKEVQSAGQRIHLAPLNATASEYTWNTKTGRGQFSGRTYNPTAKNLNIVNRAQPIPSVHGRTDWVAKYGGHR

Study 1
Target: DNA polymerase theta, ATPase domain (POLQ, Homo sapiens, UniProt O75417)
Chain of UniProt O75417 (whole entry, unmodified, looked up): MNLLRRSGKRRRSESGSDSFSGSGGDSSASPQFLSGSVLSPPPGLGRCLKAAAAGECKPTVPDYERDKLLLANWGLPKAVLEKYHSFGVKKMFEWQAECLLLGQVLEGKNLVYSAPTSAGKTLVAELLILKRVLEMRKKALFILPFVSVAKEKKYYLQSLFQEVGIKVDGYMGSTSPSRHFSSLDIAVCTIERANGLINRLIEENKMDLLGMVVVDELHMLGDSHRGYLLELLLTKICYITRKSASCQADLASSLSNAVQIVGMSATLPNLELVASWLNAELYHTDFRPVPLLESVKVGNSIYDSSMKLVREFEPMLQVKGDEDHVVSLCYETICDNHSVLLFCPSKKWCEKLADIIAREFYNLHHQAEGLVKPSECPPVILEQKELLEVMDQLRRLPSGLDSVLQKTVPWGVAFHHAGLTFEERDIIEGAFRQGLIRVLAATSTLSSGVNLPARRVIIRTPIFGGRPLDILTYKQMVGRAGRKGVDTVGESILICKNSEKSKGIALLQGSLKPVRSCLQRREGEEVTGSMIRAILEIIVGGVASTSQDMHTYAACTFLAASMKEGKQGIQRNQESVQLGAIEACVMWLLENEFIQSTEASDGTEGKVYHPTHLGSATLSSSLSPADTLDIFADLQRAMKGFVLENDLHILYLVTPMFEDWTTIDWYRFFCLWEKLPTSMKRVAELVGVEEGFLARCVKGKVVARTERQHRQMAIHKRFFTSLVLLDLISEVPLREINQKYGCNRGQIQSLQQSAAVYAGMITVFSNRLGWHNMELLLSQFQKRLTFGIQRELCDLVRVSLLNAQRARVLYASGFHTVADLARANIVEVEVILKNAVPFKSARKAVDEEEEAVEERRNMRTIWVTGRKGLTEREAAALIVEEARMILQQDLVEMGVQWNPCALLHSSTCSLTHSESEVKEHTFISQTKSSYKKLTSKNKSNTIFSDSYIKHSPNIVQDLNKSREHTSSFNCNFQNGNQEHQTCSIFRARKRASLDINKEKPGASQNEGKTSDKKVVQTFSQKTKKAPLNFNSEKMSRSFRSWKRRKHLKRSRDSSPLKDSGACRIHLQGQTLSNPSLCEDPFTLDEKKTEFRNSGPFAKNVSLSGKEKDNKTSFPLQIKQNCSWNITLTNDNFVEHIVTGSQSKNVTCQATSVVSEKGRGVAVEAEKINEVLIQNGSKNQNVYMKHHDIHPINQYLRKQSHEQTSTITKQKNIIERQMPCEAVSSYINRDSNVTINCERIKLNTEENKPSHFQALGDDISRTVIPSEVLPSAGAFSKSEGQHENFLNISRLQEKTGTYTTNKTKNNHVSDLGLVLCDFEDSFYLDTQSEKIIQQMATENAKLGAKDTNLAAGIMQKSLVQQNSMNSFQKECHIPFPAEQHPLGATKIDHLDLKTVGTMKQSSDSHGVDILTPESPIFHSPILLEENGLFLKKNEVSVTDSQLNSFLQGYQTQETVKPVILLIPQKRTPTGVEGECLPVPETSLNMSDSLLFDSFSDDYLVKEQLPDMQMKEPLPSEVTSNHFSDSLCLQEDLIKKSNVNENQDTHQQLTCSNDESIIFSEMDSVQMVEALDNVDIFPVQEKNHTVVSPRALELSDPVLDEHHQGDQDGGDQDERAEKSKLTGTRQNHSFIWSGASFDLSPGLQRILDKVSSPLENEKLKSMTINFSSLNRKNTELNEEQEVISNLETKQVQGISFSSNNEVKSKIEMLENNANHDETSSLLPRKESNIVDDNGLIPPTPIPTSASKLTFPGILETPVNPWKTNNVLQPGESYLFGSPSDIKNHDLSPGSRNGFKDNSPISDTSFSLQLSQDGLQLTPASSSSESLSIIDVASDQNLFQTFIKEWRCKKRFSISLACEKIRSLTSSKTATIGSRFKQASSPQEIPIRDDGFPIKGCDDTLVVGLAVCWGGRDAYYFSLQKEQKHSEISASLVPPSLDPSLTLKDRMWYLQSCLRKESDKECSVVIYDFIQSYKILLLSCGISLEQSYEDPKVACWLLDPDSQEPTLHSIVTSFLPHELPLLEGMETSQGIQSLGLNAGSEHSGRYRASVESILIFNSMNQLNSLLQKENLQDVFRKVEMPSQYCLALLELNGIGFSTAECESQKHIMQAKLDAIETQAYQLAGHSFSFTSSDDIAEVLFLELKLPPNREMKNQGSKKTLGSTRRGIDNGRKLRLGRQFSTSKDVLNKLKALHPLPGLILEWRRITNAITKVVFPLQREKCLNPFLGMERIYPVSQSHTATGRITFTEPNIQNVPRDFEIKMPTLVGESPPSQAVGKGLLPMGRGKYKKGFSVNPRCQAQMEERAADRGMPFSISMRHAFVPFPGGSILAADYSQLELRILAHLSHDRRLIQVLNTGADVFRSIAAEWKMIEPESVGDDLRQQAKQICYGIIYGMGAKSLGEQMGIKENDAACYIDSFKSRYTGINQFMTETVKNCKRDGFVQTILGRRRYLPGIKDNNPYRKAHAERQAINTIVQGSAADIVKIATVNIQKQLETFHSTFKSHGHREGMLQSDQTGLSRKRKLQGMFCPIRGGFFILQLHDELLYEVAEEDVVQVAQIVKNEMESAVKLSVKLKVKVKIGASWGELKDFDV
Read-out: enzyme activity
Action: inhibitor
Tested at: 77 µM
Relative to: untreated
| Compound | remaining activity |
| --- | --- |
| Cc1cc2c(F)c(Oc3ncnn4cc(OC[C@@H](C)OC(=O)[C@H](C)N)c(C)c34)ccc2[nH]1 | 99% |
| OCC(O)CCON=C1C(c2c(O)[nH]c3ccccc23)=Nc2ccccc21 (centres unmarked) | 108% |
| CCc1ccc(/C=C2/SC(=S)NC2=O)cc1 | 60.8% |
| Cc1ccc(Nc2nccc(N(C)c3ccc4c(C)n(C)nc4c3)n2)cc1S(N)(=O)=O | 109% and 107% and 106% and 81.1% and 99% |
| O=C1c2ccccc2-c2nc3nnnn3nc21 | 62.7% |
| O=C(c1ccccc1)c1ccc(N2CCOCC2)cc1O | 98.7% |

Study 2
Compound: O=C(Nc1cnn(-c2csc(C(=O)NC3COC3)c2)c1)Nc1c(F)cccc1Cl
Read-out: enzyme activity
Tested at: 5 µM
| target | action | relative to | remaining activity |
| --- | --- | --- | --- |
| Tyrosine-protein kinase ABL2 (ABL2, Homo sapiens, UniProt P42684) | – | untreated control | 84.2% |
| Homeodomain-interacting protein kinase 4 (HIPK4, Homo sapiens, UniProt Q8NE63) | – | untreated control | 104% |
| Cyclin-dependent kinase 2, with cyclin O (CDK2, Homo sapiens, UniProt P24941) | – | untreated control | 93.5% |
| Serine/threonine-protein kinase 4 (STK4, Homo sapiens, UniProt Q13043) | – | untreated control | 92.8% |
| Calcium/calmodulin-dependent protein kinase type IV (CAMK4, Homo sapiens, UniProt Q16566) | – | untreated control | 97.6% |
| Kinase suppressor of Ras 1 (KSR1, Homo sapiens, UniProt Q8IVT5) | inhibitor | – | 105% |
| Ribosomal protein S6 kinase alpha-2 (RPS6KA2, Homo sapiens, UniProt Q15349) | – | untreated control | 89.4% |

Study 3
Host: mouse
Medium: microsomes or S9
Tested at: 2 µM
Time: 0.5 h
| SMILES | remaining compound |
| --- | --- |
| Cc1cc(=O)n(C2CCNCC2)nc1-c1ccccc1 | 56.9% |
| CCCS(=O)(=O)N1CC(=O)Nc2ccc(Br)cc21 | 83.8% |
| O=c1c2c(ccn1Cc1cc(F)ccc1F)ccn2Cc1cccnc1 | 0.856% |
| CCS(=O)(=O)c1nc(S(=O)(=O)c2ccc(Cl)cc2)c(NC2CCCC2)s1 | 0.0898% |
| c1ccc(-c2noc(Cc3cn4ccccc4n3)n2)nc1 | 34.2% |
| c1ccc(-c2cc3cc(-c4ccccc4)[nH]c3cn2)cc1 | 4.48% |
| Cc1noc(C)c1CN1CCn2c1nc(-c1ccccc1)cc2=O | 23.7% |
| COC(=O)C(O)c1cnc2c(c1-c1ccc(Cl)cc1)C(C)(C)CN(Cc1ccc(OC)cc1)C2=O (centres unmarked) | 71.1% |
| CC1CCCN(c2ncc(CN(Cc3ccccc3)C3CCN(C)CC3)cn2)C1 (centres unmarked) | 2.24% |
| O=c1[nH]c(NN2CCOCC2)nnc1Cc1ccc(Cl)cc1 | 36.6% |

Study 4
Compound: CO[C@@H](C)c1c(Nc2ccc([C@H](N(C)C(=O)C3CCS(=O)(=O)CC3)C(F)(F)F)cc2)cnc2cc(Cl)nn12
Read-out: cell-free assay
Technique: competition with immobilised ligand
Tested at: 1 µM
| target | remaining binding |
| --- | --- |
| Serine/threonine-protein kinase Sgk1 (SGK1, Homo sapiens, UniProt O00141) | 94% |
| Homeodomain-interacting protein kinase 3 (HIPK3, Homo sapiens, UniProt Q9H422) | 100% |
| Casein kinase I isoform alpha-like (CSNK1A1L, Homo sapiens, UniProt Q8N752) | 65% |
| Serine/threonine-protein kinase LATS1 (LATS1, Homo sapiens, UniProt O95835) | 88% |
| Protein kinase C theta type (PRKCQ, Homo sapiens, UniProt Q04759) | 93% |
| Muscle, skeletal receptor tyrosine-protein kinase (MUSK, Homo sapiens, UniProt O15146) | 83% |
| Phosphatidylinositol 4-phosphate 5-kinase type-1 gamma (PIP5K1C, Homo sapiens, UniProt O60331) | 100% |
| Interleukin-1 receptor-associated kinase 3 (IRAK3, Homo sapiens, UniProt Q9Y616) | 68% |
| Tyrosine-protein kinase ABL1, non-phosphorylated (ABL1, Homo sapiens, UniProt P00519) | 63% |
| Serine/threonine-protein kinase MAK (MAK, Homo sapiens, UniProt P20794) | 100% |
| Aurora kinase B (AURKB, Homo sapiens, UniProt Q96GD4) | 91% |
| Receptor-interacting serine/threonine-protein kinase 4 (RIPK4, Homo sapiens, UniProt P57078) | 76% |
| Macrophage colony-stimulating factor 1 receptor, autoinhibited (CSF1R, Homo sapiens, UniProt P07333) | 95% |
| Epidermal growth factor receptor (EGFR, Homo sapiens, UniProt P00533, del747-750/T751S) | 100% |
| Phosphatidylinositol 4,5-bisphosphate 3-kinase catalytic subunit alpha isoform (PIK3CA, Homo sapiens, UniProt P42336) | 94% |

For quick reference, copied from above (study 3):
| SMILES | remaining compound |
| --- | --- |
| CCCS(=O)(=O)N1CC(=O)Nc2ccc(Br)cc21 | 83.8% |
| O=c1c2c(ccn1Cc1cc(F)ccc1F)ccn2Cc1cccnc1 | 0.856% |
| CCS(=O)(=O)c1nc(S(=O)(=O)c2ccc(Cl)cc2)c(NC2CCCC2)s1 | 0.0898% |
